Assay results from different studies.
Parts stem from different laboratories: compare values within a part only. Substitutions count along the parent as printed.

Sample 1
Target: Interferon regulatory factor 5, full length, phosphomimetic (IRF5, Homo sapiens, UniProt Q13568-2, residues 1-514, S451D/S453D/S456D/S462D)
Technique: protein-binding microarray
Molecule type: double-stranded DNA, one strand shown
Medium: in vitro
Concentration: 940 nM top
Notes: 60-bp whole probe
With: salmon DNA 0.4 mg/ml
Reference: random background probes
Direction: higher = stronger binding
Shared flanks, not repeated: GCCTAGCAC … GTCTTGATTCGCTTGACGCTGCTG
Under “fitted relative affinity”, `GACGGTGTCGGGTATCGGGACGTGCTA` is recorded as 0.712 z-score.
`TTATGTTTCCTTATCCTTTAGTGCTAG` — result for “fitted relative affinity”: 2.01 z-score.
`TTAGAACTGGGGACTGGATTAGTGCTA` — result for “fitted relative affinity”: 0.0257 z-score.
`GACGGACTGGGGACTGGGGAAGTGCTA`: “fitted relative affinity” -0.413 z-score.
For `TTAGGTATCCTTATCCTTAAGTGCTAG`, “fitted relative affinity” read 0.429 z-score.
`CTGAGTCCCTATCTCCTCACGTGCTAG`: “fitted relative affinity” 0.447 z-score.
For `TCATCTCTGGCCCTCCTACTGTGCTAG`, “fitted relative affinity” read 0.557 z-score.
`GACGGTTTCCTTATCCTGAGGTGCTAG` — result for “fitted relative affinity”: 1.07 z-score.
`GACGTACTGGGACTGGGGACGTGCTAG` — result for “fitted relative affinity”: -0.594 z-score.
`TTAGGTATGCTTTTCCTTTAGTGCTAG` — result for “fitted relative affinity”: -0.344 z-score.
`GACGATATCAGTAACGAGACGTGCTAG`: “fitted relative affinity” 0.0404 z-score.
`GACGAACTGAGTCTCGCGACGTGCTAG` — result for “fitted relative affinity”: -0.476 z-score.
Under “fitted relative affinity”, `ATTAGAGGATAACTTACAGAGTGCTAG` is recorded as -0.526 z-score.
For `TTAGGAATCGGGACTGGGTTAGTGCTA`, “fitted relative affinity” read -0.0888 z-score.
Under “fitted relative affinity”, `TTAGAACTGAGTTTCGATAAGTGCTAG` is recorded as 7.33 z-score.
`GACGGACTGGGGCTTCGGGACGTGCTA`: “fitted relative affinity” -0.687 z-score.
`TCATCCCTCGGGTTGCGGACTGTGCTA`: “fitted relative affinity” -0.421 z-score.
`TCAGTTTTCATTTTCTGACTGTGCTAG` — result for “fitted relative affinity”: 1.98 z-score.
`TTAGATTCCATTTTCGATTAGTGCTAG`: “fitted relative affinity” 1.67 z-score.
`GACGGTCTCCTCTTCCTGACGTGCTAG` — result for “fitted relative affinity”: 0.304 z-score.
`CACTCTCAGAATCTCTCATGGTGCTAG`: “fitted relative affinity” 2.69 z-score.
`TTAGGCCTGGGGACTGGGTTAGTGCTA` — result for “fitted relative affinity”: -0.473 z-score.
For `GACGGTATCGCGTTTCGGGACGTGCTA`, “fitted relative affinity” read 1.74 z-score.
Under “fitted relative affinity”, `TCATCACTCTGTCCCTCACTGTGCTAG` is recorded as 1.15 z-score.
`GACTATATCGGGTTTCGAGACGTGCTA` — result for “fitted relative affinity”: 1.75 z-score.

Sample 2
Target: CCNA1, cyclin fold, Cln2 fusion (human)
Technique: yeast growth competition, sequencing
Medium: yeast
Notes: weak parent motif
Reference: not given
Direction: higher = stronger binding
Starting sequence: RP1L1 docking peptide (human); TLGLGPLSFTLED; partner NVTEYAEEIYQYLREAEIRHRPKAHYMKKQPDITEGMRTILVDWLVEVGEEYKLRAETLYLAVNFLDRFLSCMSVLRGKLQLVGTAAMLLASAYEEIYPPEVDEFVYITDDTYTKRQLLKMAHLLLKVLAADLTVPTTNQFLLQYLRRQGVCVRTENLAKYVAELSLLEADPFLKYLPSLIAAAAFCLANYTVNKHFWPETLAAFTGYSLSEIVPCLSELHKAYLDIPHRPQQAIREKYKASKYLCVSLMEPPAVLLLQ
`TLGLGPLSATLED [F9A]` — result for “normalised enrichment score”: -0.0797.
`TLGLGALSFTLED [P6A]` — result for “normalised enrichment score”: -0.498.
`TLGLGPASFTLED [L7A]` — result for “normalised enrichment score”: -0.287.
`TLGLGPLSFTAED [L11A]` — result for “normalised enrichment score”: -0.457.
`TLGLGPLSFALED [T10A]` — result for “normalised enrichment score”: -0.556.
`TAGLGPLSFTLED [L2A]`: “normalised enrichment score” -0.676.

Sample 3
Target: RNA binding protein fox-1 homolog 2, RRM domain, GST-SBP tag (RBFOX2, Homo sapiens, UniProt O43251-10, residues 100-194)
Technique: RNA Bind-n-Seq
Molecule type: RNA
Medium: in vitro
Concentration: 365 nM
Notes: natural RNA segment, single round, ends assumed
Reference: no-protein control
Direction: higher = stronger binding
Construct (chain): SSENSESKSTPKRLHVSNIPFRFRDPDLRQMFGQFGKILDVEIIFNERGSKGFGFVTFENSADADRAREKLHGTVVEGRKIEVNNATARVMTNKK
Under “RBNS enrichment (R)”, `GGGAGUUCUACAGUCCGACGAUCUCUGGACAGUGCGGUUACAAGCAUUAGUGAGUGUCCUGCUCCACGCCUGUGUGAACCAGGCACAGGAAAACAAACUCCUACAGGCUGUCAUGCUCCUGCAGGAAGAUGAGUGGAAUUCUCGGGUGCCAA` is recorded as 0.48.
For `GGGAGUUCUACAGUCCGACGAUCCGAUGUACAUAACUAUUUAAUGCAGCGGCAGCGGCGACAGCCUUCCCUGAGAGGACUUAAAAGCAGAAGGAAACCGAGAUGCUUCCCGCAGCCGUGGACGAUUCUCCAGGUGGAAUUCUCGGGUGCCAA`, “RBNS enrichment (R)” read 0.363.
Under “RBNS enrichment (R)”, `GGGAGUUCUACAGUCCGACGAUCCUGCUGACUUGACACGUGACAGUGAAGUAAUGGAAGUGGCCAGAUGUCAGGAAACUGAGAGUAAUGAAGAACAGAGUAUUAGCCCGGAGAAAAGAGAGAUGGGAACCGACUGGAAUUCUCGGGUGCCAA` is recorded as 1.31.
Under “RBNS enrichment (R)”, `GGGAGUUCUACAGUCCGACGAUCGCUGGGAUUUUAAACUAGAUGACCUCAUUAACCGAUGCUUUACCAAACAGCAAACCAAGAGAUUGCUAAUUGCUGUUGAAAGCAAAAAUGCUAAUAUUAAAAGUCACAAUUGGAAUUCUCGGGUGCCAA` is recorded as 0.369.
Under “RBNS enrichment (R)”, `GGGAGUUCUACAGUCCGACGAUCGGGUCUGAGGGUUCCAGCGUAAAUGCCUGCCCUGCAGCGCCUGGCAACUGGCAAGCAUCGGGUCUGAGGGACUACACAGGGCGCAGCACAAGGCGCUCAUGGGUUUCAGGUGGAAUUCUCGGGUGCCAA` is recorded as 0.471.
`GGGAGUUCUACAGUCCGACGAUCCCCUCACCCCACCACCAGGGUCCUGACUUCACAUUCUUCACAGAAGGGGACAAGACCUCCAGGAGGCCCUGUGGAGUCUCUGGUGAGGUGUGCGAUGGCAGAGCAGCAUCUGGAAUUCUCGGGUGCCAA` — result for “RBNS enrichment (R)”: 0.327.
For `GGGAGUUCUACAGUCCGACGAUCUUGUUUUACUCCCAAUGACUGCACUAUAUGUAUGCAUAAGACCACUUUUGAGCGCUGUGUUCCCCCUUCUGAGUAGUCCUUUGACGACGUGUUGUGUUUUCUGAUGUUGAUGGAAUUCUCGGGUGCCAA`, “RBNS enrichment (R)” read 1.6.
`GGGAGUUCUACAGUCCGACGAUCGGGUGACUUGUGGUUGUAGAGUUGGCCAUCAUUCUGCACUGUUGAUAGCUGUCUGCUCCAGUUUCUGGUCUUUGGUAUACUCAGUGUGGCCCGGUGAUGAAGGCUUUCUAUGGAAUUCUCGGGUGCCAA`: “RBNS enrichment (R)” 0.509.
Under “RBNS enrichment (R)”, `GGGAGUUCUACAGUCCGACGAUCGGAAGCCAUGUGUAACAGAGCUUAGACAUCUGAAACUAAUCAAUGCUGAGGUGGCUAAAUACCUAGCCUUUUACAUGGAAACCUGUCUGCAAAAUUAGCUUUUUUUAAAAUGGAAUUCUCGGGUGCCAA` is recorded as 0.414.
Under “RBNS enrichment (R)”, `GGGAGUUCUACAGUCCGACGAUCAAUACAUGCACACCAGAAAGGCAUUUCCACCACCGUCCCCACUCAUUAGCGUCCAGAGUGCCUUUCUCUCUCGGCUUUUUUUCCCCCCUGAGCUCUAGUUUUAAACUUUCUGGAAUUCUCGGGUGCCAA` is recorded as 1.39.
Under “RBNS enrichment (R)”, `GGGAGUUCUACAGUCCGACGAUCAGUAAAGUGCAAUUUCAUUGGAUAGCUAAAUAUCUUUGUAAGAUAGAGAUUGUUGAAAAUUCUAUUUUUGUUUUUCUAGUCCUUUCACCCCAGGACUCUAAAUUAUUGGGUGGAAUUCUCGGGUGCCAA` is recorded as 1.36.
Under “RBNS enrichment (R)”, `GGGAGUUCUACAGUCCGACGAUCACAAGACCACACUUUGGGACUUGGGAGCUGGGGCUGAAGUUGCUCUGUACCCAUGAACUCCCAGUUUGCGAAUUAUAGAGACAAUCUAUUUUGUUACUUGCACUUGUUAUUGGAAUUCUCGGGUGCCAA` is recorded as 1.33.

Sample 4
Target: Histone acetyltransferase KAT6A, winged helix 1, GST fusion (KAT6A, Homo sapiens, UniProt Q92794, residues 1-85)
Technique: protein binding microarray
Molecule type: double-stranded DNA, one strand shown
Medium: in vitro
Concentration: not given
Notes: 8-mer, flanks averaged, mean of 2 arrays, mostly near background
Reference: not given
Direction: higher = stronger binding
Residues (chain): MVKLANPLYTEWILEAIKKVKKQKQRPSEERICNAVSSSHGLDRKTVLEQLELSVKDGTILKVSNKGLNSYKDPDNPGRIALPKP
With `ACACTAAT` the E-score was -0.0016.
`TGGAACCA` has an E-score of -0.0376.
`CAACAGAC` gave an E-score of -0.00931.
`GGCGAGAC` gave an E-score of 0.103.
`ATAGGATA` has an E-score of -0.121.
The E-score of `ATGTAAAG` is reported as -0.106.
The E-score of `TAACGTGA` is reported as -0.0284.
`CCATGAAC` gave an E-score of -0.151.
`ATTTCAGA` has an E-score of -0.233.
With `AAAATTAT` the E-score was 0.0251.
For `CTCTATGA`, the E-score was -0.129.
`ACCCGACG` has an E-score of 0.408.
`ACAACATG` has an E-score of -0.0814.
`CTAAACAC` gave an E-score of -0.0366.
`CGGATTTA` has an E-score of 0.19.
`GGCTTACA` has an E-score of -0.114.
With `CTATATAA` the E-score was -0.0992.
With `AATCTCCT` the E-score was -0.161.

Sample 5
Target: ABI1, truncated, D143A, DHFR fusion (Arabidopsis thaliana)
Technique: DHFR PCA, deep sequencing
Medium: yeast
Notes: methotrexate growth selection, single substitutions
With: (+)-ABA 2500 µM
Reference: wild-type fitted maximum
Direction: higher = stronger binding
Starting sequence: PYL1, truncated, DHFR fusion (Arabidopsis thaliana); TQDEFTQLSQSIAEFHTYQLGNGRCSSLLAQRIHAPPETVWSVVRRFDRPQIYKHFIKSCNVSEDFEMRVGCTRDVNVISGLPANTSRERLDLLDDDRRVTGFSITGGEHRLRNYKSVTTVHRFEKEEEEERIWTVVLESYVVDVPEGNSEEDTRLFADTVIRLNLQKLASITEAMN
`V142L` — result for “relative binding score”: 93.2%.
Under “relative binding score”, `T135Q` is recorded as -4.51%.
Under “relative binding score”, `N85Y` is recorded as 94%.
`E147P` — result for “relative binding score”: 94.4%.
Under “relative binding score”, `E64R` is recorded as 97.9%.
`W134N` — result for “relative binding score”: 110%.
For `W41K`, “relative binding score” read -8.86%.
`R88D` — result for “relative binding score”: 84.4%.
Under “relative binding score”, `V100D` is recorded as 6.2%.
For `R32D`, “relative binding score” read 83%.
Under “relative binding score”, `D159S` is recorded as 90.7%.
`T160G`: “relative binding score” 86.3%.
`Q19F`: “relative binding score” 96.8%.
`F47E` — result for “relative binding score”: -5.53%.

Single results of other studies
`PhoQ, residues 284 288 289 292 302 303 TVTVVA` gave a fold induction of 10.2 (PhoP, residues 12 14 15 18 19 NQFFI (Escherichia coli, UniProt P23836); Sort-seq, item: YFP reporter; E. coli; PhoQ-PhoP variant library, with: 10 µM Mg2+; reference: high Mg2+ state, higher = stronger signaling).

Some of these lines once more (sample 5):
Under “relative binding score”, `E64R` is recorded as 97.9%.
`W134N` — result for “relative binding score”: 110%.
For `W41K`, “relative binding score” read -8.86%.
`R88D` — result for “relative binding score”: 84.4%.
Under “relative binding score”, `V100D` is recorded as 6.2%.
For `R32D`, “relative binding score” read 83%.
Under “relative binding score”, `D159S` is recorded as 90.7%.
`T160G`: “relative binding score” 86.3%.
